Results gathered from unrelated publications.
A part holds a random share of what one study measured. Positions count from the first letter of the parent shown.

Study 1 — method: protein binding microarray; form: double-stranded DNA, one strand shown; medium: in vitro; concentration: not given; baseline: not given; reading: higher = stronger binding
Target: Histone acetyltransferase KAT6A, winged helix 1, GST fusion (KAT6A, Homo sapiens, UniProt Q92794, residues 1-85)
Notes: 8-mer, flanks averaged, mean of 2 arrays, mostly near background
Residues (chain): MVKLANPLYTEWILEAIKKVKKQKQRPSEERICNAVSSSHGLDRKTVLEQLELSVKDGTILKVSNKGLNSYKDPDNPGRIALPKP
| Strand | E-score |
| --- | --- |
| AGAGTAAA | 0.0156 |
| ACCGTTCA | 0.0861 |
| AATAAAGT | -0.163 |
| AATGACCT | -0.187 |
| ATGCTTTA | 0.0143 |
| CTGAACAC | -0.0271 |
| AGCCGCCT | 0.239 |
| CGGTCTCC | 0.158 |
| TCATATCA | -0.128 |
| ATTCACTC | -0.169 |

Study 2 — target: CCNB2, cyclin fold, Cln2 fusion (human); method: yeast growth competition, sequencing; medium: yeast; notes: strong parent motif; baseline: not given; reading: higher = stronger binding
Starting sequence: PKMYT1 docking peptide (human); SFEPRNLLSLFED; partner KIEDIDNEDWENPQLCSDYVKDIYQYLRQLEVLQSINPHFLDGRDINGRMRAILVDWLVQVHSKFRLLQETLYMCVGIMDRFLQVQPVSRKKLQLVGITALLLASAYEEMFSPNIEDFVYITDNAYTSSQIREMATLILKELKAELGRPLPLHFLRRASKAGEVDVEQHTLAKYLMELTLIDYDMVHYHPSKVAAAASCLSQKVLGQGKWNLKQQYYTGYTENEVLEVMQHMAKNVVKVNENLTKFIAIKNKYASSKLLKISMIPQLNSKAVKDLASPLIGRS
| Substitution | normalised enrichment score |
| --- | --- |
| S1E | 1.44 |
| D13H | 0.224 |
| P4C | 1.38 |
| R5E | 0.0457 |
| R5F | 0.248 |

Study 3 — method: protein-binding microarray; form: double-stranded DNA, one strand shown; medium: in vitro; concentration: 250 nM; notes: 60-bp whole probe; with: salmon DNA 0.4 mg/ml; baseline: random background probes; reading: higher = stronger binding; shared flanks, not repeated: GCCTAGCAC … GTCTTGATTCGCTTGACGCTGCTG
Target: Interferon regulatory factor 5, full length, phosphomimetic (IRF5, Homo sapiens, UniProt Q13568-2, residues 1-514, K96S/S451D/S453D/S456D/S462D)
| Strand | log fluorescence |
| --- | --- |
| TTAGAAATCAGTCTCGATTAGTGCTAG | 1.37 z-score |
| GACGGTTTCGGTCTCGGGCCGTGCTAG | 9.82 z-score |
| TTAGAACTGAGTATCGATTAGTGCTAG | 6.29 z-score |
| GACGATATGAGTATCGAGACGTGCTAG | 1.98 z-score |
| GACGCACTGGGGACTGGAGACGTGCTA | -0.477 z-score |
| CTCACTCTGTCCCTCTGTGAGTGCTAG | -0.028 z-score |
| TCAAAGCTCCTATCTTATACTGTGCTA | 0.361 z-score |
| GGGAACTTAAACCTCTAAAGGTGCTAG | -0.185 z-score |
| AGCCTGGCCAAGCTCACAGCGTGCTAG | -1.24 z-score |

Further values, each from its own experiment
| Molecule | target | test | system | setting | scale | endpoint | value |
| --- | --- | --- | --- | --- | --- | --- | --- |
| PhoQ, residues 284 288 289 292 302 303 TLSLKA | PhoP, residues 12 14 15 18 19 NQCAL (Escherichia coli, UniProt P23836) | Sort-seq, refers to: YFP reporter | E. coli | PhoQ-PhoP variant library, with: 10 µM Mg2+ | baseline: high Mg2+ state, higher = stronger signaling | fold induction | 0.831 |

A few entries again (study 2):
| Substitution | normalised enrichment score |
| --- | --- |
| D13H | 0.224 |
| P4C | 1.38 |
| R5E | 0.0457 |
| R5F | 0.248 |
